Measured values pooled from the literature.
Each line is one published result; not all experiments were run side by side.
Cell line: OVCAR-5

Structure (SMILES) = CCCN1CCN(c2ccc3[nH]c(-c4ccc5[nH]c(-c6cc(OC)c(OC)c(OC)c6)nc5c4)nc3c2)CC1; assay = SRB; setting = 10 µM, 48 h; measurement = growth percent; value = 116%
Structure (SMILES) = C#C[C@@]1(O)[C@@H](CO)O[C@@H](n2cc(F)c3c(N)ncnc32)[C@@H]1O; assay = SRB; setting = NCI-60 screen; measurement = TGI; value = > 100 µM
Structure (SMILES) = O=C(Nc1nnc2n3c(=S)[nH][nH]c3nc(-c3ccc(Cl)cc3)c1-2)c1ccccc1; assay = SRB; setting = 10 µM, NCI60 single-dose screen; scale = relative to: untreated; measurement = cell growth; value = 116%
Structure (SMILES) = CN1CCN(c2ccc3[nH]c(-c4ccc5[nH]c(-c6ccc(C(F)(F)F)cc6)nc5c4)nc3c2)CC1; assay = SRB; setting = 10 µM, 48 h; measurement = growth percent; value = 110%
Structure (SMILES) = Cc1cc(C)n(-c2nc(-c3ccc(Cl)cc3)c3c(NC(=O)c4ccccc4)nnc-3[nH]2)n1; assay = SRB; setting = 10 µM, NCI60 single-dose screen; scale = relative to: untreated; measurement = cell growth; value = 120%
Structure (SMILES) = Cc1cc(C)n(C(=S)[S][Au][PH](CCCCCC[PH]([Au][S]C(=S)n2nc(C)cc2C)(c2ccccc2)c2ccccc2)(c2ccccc2)c2ccccc2)n1; assay = cell growth, NCI-60 screen; setting = ovarian cancer; measurement = log10 TGI; value = -5.17
Structure (SMILES) = C#C[C@@]1(O)[C@@H](CO)O[C@@H](n2cc(I)c3c(N)ncnc32)[C@@H]1O; assay = SRB; setting = NCI-60 screen; measurement = TGI; value = > 100 µM
Structure (SMILES) = O=C(Nc1nnc2n3c(Cc4ccccc4)n[nH]c3nc(-c3ccc(Cl)cc3)c1-2)c1ccccc1; assay = SRB; setting = 10 µM, NCI60 single-dose screen; scale = relative to: untreated; measurement = cell growth; value = 122%
Structure (SMILES) = COc1ccc(OC)c(-c2nc3ccc(-c4nc5ccc(N6CCN(C)CC6)cc5[nH]4)cc3[nH]2)c1; assay = SRB; setting = 10 µM, 48 h; measurement = growth percent; value = 120%
Structure (SMILES) = CCN(CC)c1ccc(C=NNC(=O)CSc2nc3ccccc3c(=O)n2Cc2ccc(S(N)(=O)=O)cc2)c(O)c1; assay = NCI five-dose screen; measurement = TGI; value = > 100 µM
Structure (SMILES) = CCCN1CCN(c2ccc3nc(-c4ccc5nc(-c6cc(OC)ccc6OC)[nH]c5c4)[nH]c3c2)CC1; assay = SRB; setting = 10 µM, 48 h; measurement = growth percent; value = 113%
Structure (SMILES) = CCOC(=O)CSc1nc(-c2ccc(Cl)cc2)c2c(NC(=O)c3ccccc3)nnc-2[nH]1; assay = SRB; setting = 10 µM, NCI60 single-dose screen; scale = relative to: untreated; measurement = cell growth; value = 101%
Structure (SMILES) = O=C1NC(=NCc2cccs2)S/C1=C\c1ccc2ncccc2c1; assay = MTS; setting = NCI60 panel; measurement = IC50; value = > 10 µM
Structure (SMILES) = Cc1cc(=O)[nH]n1-c1nc(-c2ccc(Cl)cc2)c2c(NC(=O)c3ccccc3)nnc-2[nH]1; assay = SRB; setting = 10 µM, NCI60 single-dose screen; scale = relative to: untreated; measurement = cell growth; value = 98.3%
Structure (SMILES) = Cn1cncc1C1=CN(c2ncnc3[nH]cnc23)CCS1; setting = ovarian cancer; measurement = GI50; value = 46.8 µM
Structure (SMILES) = CCCN1CCN(c2ccc3[nH]c(-c4ccc5[nH]c(-c6ccc(C(F)(F)F)cc6)nc5c4)nc3c2)CC1; assay = SRB; setting = 10 µM, 48 h; measurement = growth percent; value = -24.9%
Structure (SMILES) = CSc1nc(-c2ccc(Cl)cc2)c2c(NC(=O)c3ccccc3)nnc-2[nH]1; assay = SRB; setting = 10 µM, NCI60 single-dose screen; scale = relative to: untreated; measurement = cell growth; value = 109%
Structure (SMILES) = CCOc1ccc(-c2nc3cc(-c4nc5cc(N6CCN(C)CC6)ccc5[nH]4)ccc3[nH]2)cc1OCC; assay = SRB; setting = 10 µM, 48 h; measurement = growth percent; value = 44.5%
Structure (SMILES) = CCCCS(=N)(=O)CCC(N)C(=O)O (stereo not shown); assay = LC-ESI-MS/MS, measured: glutathione; setting = 200 µM, 12 h; scale = relative to: untreated; measurement = remaining GSH; value = 0.4%

Excerpt of the above:
Structure (SMILES) = CCCCS(=N)(=O)CCC(N)C(=O)O (stereo not shown); assay = LC-ESI-MS/MS, measured: glutathione; setting = 200 µM, 12 h; scale = relative to: untreated; measurement = remaining GSH; value = 0.4%
